Measurements collected from several papers.
Parts stem from different laboratories: compare values within a part only.
UniProt Q9P1W9, sequence (whole entry, looked up): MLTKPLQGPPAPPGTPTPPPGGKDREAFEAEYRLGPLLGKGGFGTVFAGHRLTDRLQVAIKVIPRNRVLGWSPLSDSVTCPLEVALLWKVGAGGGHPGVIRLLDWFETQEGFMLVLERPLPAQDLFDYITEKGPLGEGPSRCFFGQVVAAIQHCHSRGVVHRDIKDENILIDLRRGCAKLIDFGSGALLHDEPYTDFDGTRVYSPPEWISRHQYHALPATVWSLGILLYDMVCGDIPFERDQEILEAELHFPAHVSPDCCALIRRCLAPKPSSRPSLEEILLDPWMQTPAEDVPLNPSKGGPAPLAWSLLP
UniProt P16257, sequence (whole entry, looked up): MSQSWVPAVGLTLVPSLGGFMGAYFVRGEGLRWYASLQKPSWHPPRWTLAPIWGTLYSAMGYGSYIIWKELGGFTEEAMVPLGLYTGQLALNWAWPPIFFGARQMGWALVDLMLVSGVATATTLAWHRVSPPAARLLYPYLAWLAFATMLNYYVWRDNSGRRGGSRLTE
UniProt O60285, sequence (whole entry, looked up): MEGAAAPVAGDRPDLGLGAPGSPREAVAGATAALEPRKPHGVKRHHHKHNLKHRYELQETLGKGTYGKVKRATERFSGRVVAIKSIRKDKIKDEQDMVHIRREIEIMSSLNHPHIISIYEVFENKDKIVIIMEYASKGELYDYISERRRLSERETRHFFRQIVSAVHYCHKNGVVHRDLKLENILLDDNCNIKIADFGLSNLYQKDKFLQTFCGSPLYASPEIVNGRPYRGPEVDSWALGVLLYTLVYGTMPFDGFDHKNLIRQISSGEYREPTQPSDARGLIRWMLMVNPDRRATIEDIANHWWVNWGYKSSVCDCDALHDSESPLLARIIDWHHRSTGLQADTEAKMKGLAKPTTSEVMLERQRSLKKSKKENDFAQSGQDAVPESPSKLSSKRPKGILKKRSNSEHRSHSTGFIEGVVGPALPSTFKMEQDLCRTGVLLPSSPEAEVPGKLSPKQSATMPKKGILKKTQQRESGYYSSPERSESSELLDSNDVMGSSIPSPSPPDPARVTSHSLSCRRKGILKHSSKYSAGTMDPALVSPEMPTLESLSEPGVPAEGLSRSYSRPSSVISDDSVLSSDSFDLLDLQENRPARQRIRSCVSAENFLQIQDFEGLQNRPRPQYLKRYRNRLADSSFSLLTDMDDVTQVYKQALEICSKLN
UniProt P51813, sequence (whole entry, looked up): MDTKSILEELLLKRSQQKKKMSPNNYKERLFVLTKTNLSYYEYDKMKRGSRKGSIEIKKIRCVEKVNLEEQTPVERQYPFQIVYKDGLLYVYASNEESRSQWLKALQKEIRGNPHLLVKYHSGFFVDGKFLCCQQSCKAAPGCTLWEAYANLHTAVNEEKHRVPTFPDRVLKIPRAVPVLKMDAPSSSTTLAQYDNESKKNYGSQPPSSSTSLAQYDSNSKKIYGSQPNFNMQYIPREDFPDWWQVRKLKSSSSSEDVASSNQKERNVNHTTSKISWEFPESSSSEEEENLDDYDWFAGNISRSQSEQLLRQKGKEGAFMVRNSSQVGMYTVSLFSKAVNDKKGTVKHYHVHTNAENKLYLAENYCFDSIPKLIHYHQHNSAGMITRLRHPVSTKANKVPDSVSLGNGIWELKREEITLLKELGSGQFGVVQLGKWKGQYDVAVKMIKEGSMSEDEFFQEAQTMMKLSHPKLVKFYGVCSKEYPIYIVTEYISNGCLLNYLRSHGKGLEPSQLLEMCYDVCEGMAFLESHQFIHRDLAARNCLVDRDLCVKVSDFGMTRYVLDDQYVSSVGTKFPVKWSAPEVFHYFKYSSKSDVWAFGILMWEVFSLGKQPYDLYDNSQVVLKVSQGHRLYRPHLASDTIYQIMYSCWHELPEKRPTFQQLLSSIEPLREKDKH
UniProt P22455, sequence (whole entry, looked up): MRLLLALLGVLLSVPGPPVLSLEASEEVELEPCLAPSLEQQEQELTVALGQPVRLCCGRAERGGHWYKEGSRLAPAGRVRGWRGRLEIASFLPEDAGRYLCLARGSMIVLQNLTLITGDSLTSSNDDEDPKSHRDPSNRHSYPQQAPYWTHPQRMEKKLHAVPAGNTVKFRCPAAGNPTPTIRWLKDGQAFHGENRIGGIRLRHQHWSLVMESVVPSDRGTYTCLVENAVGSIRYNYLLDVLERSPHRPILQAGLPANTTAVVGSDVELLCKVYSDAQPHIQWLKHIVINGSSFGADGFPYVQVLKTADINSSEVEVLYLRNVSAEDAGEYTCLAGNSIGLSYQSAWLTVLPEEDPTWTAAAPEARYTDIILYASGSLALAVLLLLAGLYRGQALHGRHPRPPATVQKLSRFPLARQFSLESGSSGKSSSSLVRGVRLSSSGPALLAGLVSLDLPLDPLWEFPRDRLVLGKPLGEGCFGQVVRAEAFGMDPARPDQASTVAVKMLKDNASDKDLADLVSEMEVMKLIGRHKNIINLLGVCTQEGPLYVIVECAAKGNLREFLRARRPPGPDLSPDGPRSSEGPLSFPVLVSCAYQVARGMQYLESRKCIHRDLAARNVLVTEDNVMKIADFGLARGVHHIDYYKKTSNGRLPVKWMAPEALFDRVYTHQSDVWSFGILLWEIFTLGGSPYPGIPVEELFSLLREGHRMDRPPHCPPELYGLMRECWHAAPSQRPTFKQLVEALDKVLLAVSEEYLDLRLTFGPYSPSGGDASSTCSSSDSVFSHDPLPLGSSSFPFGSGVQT
UniProt Q9UPE1, sequence (whole entry, looked up): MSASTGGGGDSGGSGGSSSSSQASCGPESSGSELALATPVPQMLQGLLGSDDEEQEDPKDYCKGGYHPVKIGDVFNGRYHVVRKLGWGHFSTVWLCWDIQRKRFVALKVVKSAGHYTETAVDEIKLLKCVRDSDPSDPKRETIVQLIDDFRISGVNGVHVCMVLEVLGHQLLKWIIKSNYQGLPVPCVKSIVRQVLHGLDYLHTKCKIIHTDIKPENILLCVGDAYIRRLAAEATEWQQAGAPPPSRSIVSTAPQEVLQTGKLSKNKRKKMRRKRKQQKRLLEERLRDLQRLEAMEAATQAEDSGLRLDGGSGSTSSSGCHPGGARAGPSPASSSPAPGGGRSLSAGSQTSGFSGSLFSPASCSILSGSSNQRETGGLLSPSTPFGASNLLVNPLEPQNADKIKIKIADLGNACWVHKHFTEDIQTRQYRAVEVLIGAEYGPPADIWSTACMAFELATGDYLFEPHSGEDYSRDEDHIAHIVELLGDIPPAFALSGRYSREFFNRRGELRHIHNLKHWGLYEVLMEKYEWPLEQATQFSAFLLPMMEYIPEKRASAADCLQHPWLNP
UniProt Q15418, sequence (whole entry, looked up): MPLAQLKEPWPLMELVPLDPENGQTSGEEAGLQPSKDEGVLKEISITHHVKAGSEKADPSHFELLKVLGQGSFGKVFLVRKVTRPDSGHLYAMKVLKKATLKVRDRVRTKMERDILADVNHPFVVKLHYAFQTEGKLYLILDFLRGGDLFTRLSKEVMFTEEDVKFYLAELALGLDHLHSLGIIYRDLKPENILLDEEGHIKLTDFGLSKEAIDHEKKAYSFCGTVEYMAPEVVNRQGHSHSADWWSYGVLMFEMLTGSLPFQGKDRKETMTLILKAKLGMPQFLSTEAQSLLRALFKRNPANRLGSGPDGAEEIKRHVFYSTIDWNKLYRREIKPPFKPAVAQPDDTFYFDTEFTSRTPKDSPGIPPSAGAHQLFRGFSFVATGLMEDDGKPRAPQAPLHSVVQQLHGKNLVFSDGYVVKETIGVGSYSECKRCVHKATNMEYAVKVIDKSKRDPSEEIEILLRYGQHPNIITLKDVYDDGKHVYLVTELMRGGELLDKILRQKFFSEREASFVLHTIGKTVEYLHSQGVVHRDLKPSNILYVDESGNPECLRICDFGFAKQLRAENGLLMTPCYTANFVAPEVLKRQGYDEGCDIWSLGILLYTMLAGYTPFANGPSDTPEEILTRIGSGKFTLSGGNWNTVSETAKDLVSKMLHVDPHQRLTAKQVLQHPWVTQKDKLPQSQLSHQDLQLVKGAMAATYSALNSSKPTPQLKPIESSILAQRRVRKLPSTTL
UniProt P00519, sequence (whole entry, unmodified, looked up): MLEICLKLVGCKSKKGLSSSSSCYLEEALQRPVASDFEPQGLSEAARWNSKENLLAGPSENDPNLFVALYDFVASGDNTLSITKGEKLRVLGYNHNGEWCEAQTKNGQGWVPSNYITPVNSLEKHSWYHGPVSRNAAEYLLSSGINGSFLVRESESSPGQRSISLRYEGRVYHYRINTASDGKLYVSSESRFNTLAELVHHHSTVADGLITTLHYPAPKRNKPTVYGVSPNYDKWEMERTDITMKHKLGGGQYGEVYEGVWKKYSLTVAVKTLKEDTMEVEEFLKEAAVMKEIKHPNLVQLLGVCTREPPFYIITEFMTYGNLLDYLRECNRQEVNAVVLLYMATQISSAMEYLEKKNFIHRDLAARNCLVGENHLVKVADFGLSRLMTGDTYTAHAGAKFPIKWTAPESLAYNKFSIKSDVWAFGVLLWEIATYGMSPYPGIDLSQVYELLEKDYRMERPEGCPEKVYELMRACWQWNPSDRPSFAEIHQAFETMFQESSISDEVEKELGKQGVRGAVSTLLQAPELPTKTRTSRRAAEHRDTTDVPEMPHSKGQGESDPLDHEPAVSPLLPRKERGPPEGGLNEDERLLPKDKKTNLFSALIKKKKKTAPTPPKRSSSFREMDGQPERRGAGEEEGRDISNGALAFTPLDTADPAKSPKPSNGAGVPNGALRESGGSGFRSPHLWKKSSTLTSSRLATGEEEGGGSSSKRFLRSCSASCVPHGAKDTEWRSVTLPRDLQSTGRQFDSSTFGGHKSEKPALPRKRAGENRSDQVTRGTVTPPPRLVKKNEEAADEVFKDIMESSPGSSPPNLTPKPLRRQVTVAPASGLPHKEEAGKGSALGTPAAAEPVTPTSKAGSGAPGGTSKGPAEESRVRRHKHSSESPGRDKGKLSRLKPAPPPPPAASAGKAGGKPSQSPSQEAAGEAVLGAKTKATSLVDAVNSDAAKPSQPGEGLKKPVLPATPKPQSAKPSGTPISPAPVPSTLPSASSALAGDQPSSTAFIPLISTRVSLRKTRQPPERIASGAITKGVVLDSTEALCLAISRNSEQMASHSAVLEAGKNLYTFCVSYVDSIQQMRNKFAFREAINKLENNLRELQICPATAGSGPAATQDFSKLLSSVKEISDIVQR

Study 1
Host: human
Medium: microsomes or S9
Concentration: 2 µM
Time: 0.5 h
| Structure (SMILES) | remaining compound |
| --- | --- |
| Cc1c(S(=O)(=O)N2CCN(CC(=O)NCc3ccccc3)S(=O)(=O)CC2)sc2ccc(Cl)cc12 | 5.36% |
| Cc1ccccc1-c1ccc(-n2cncc2C(=O)N2Cc3ccccc3C2)cc1 | 70.2% |
| Oc1cccc(-c2nc3c(s2)Cc2ccccc2-3)c1 | 1.47% |
| O=C1CCCc2sc(CN3CCOCC3)cc21 | 95.2% |
| CCOc1ccc(/N=C2\Nc3cccc4cccc2c34)cc1 | 0.548% |
| CCN(CC)CCCC(C)NCc1c(C)nn(-c2ccc(F)cc2)c1C (stereo not drawn) | 68.8% |
| Cc1ccc2c(c1)N(C(C)C)N=C(C(=O)N1CCOCC1)S2(=O)=O | 92% |

Study 2
Structure (SMILES): O=c1cc(N2CCOCC2)oc2c(-c3ccccc3)cccc12
Read-out: enzyme activity
Mode: inhibitor
Concentration: 0.5 µM
Reference: control
| target | remaining activity [%] |
| --- | --- |
| BMX (Homo sapiens, UniProt P51813) | 96.9 |
| RPS6KA1 (Homo sapiens, UniProt Q15418) | 97.3 |
| FGFR4 (Homo sapiens, UniProt P22455) | 104 |
| PIM2 (Homo sapiens, UniProt Q9P1W9) | 106 |
| MYLK (Homo sapiens, UniProt Q15746) | 97.8 |
| SRPK3 (Homo sapiens, UniProt Q9UPE1) | 95.5 |
| FLT3 (Homo sapiens, UniProt P36888) | 95.6 |
| NUAK1 (Homo sapiens, UniProt O60285) | 92.5 |

Single results of other studies
| Compound | target | test | conditions | how to read | measurement | value |
| --- | --- | --- | --- | --- | --- | --- |
| CN(C)[C@@H]1CCN(c2cc(-c3ccccc3)nc3ccnn23)C1 | Tspo (Rattus norvegicus, UniProt P16257) | binding, radioligand binding | 10 µM | – | inhibition | 11.6% |
| COc1ccccc1N1CCN(CCCCN[S+](=O)([O-])c2cccc3c(N(C)C)cccc23)CC1 | ADRB1 (Homo sapiens, UniProt P08588) | agonist | – | – | Emax | 54.3% |
| O=C(Nc1cccnn1)N1CC(CC=Cc2cncc(Oc3ccc(C(F)(F)F)cn3)n2)C1 | ABL1 (Homo sapiens, UniProt P00519, F317I) | KINOMEscan | 1 µM, F317I mutant, phosphorylated | reference: control | remaining binding | 67% |
